Experimental data from different studies.
Protocols differ between the studies behind these lines. ± gives the spread as reported.
Adhesin FmlH lectin domain: Adhesin FmlH, lectin domain (Escherichia coli, UniProt Q1RBS0)
ACE: Angiotensin-converting enzyme (ACE, Homo sapiens, UniProt P12821)
UniProt P12821, sequence (whole entry, looked up): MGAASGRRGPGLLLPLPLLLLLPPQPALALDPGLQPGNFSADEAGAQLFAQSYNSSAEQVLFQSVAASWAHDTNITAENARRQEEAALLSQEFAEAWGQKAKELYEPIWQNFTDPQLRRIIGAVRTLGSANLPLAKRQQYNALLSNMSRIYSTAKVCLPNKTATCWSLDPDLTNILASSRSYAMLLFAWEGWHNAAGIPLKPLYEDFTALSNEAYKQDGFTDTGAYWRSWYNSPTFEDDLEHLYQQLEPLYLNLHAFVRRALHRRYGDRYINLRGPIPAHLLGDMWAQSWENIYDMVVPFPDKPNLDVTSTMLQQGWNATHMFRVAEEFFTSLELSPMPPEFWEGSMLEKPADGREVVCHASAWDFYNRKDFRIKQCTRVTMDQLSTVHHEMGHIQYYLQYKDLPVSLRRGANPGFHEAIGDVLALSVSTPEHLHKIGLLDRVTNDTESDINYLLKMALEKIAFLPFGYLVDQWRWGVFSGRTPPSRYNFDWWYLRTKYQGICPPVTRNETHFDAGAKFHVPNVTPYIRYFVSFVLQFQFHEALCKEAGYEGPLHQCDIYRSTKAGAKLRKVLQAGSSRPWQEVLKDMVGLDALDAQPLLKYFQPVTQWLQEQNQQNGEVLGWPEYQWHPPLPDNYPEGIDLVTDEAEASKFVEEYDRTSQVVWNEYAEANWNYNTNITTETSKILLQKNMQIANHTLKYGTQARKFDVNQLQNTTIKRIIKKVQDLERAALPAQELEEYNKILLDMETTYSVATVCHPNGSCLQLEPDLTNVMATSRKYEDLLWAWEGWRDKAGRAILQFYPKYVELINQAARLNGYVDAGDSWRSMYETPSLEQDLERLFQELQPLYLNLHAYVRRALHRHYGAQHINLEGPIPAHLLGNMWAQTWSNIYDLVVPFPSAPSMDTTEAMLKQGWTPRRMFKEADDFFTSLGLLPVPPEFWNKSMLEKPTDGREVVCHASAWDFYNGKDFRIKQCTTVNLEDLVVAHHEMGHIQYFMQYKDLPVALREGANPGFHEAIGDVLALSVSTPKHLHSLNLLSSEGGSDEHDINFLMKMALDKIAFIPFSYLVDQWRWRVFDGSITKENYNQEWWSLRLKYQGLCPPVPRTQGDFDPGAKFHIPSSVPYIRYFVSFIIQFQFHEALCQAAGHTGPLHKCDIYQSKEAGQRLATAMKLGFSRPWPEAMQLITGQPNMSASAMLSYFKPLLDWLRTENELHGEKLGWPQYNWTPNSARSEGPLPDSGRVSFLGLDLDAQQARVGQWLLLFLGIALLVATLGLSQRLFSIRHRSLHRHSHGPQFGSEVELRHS
CDK6 with cyclin D3: Cyclin-dependent kinase 6, with cyclin D3 (CDK6, Homo sapiens, UniProt Q00534)
UniProt Q00534, sequence (whole entry, looked up): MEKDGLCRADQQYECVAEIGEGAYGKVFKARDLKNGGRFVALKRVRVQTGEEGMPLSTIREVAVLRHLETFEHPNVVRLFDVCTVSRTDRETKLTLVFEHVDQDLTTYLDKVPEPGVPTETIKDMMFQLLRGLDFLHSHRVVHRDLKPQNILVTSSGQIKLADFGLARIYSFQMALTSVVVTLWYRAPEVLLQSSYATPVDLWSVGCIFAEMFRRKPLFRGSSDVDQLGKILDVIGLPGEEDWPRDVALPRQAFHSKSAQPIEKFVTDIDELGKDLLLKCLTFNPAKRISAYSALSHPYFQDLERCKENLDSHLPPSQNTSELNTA
mrcB: Penicillin-binding protein 1B (mrcB, Escherichia coli K-12, UniProt P02919)
UniProt P02919, sequence (whole entry, looked up): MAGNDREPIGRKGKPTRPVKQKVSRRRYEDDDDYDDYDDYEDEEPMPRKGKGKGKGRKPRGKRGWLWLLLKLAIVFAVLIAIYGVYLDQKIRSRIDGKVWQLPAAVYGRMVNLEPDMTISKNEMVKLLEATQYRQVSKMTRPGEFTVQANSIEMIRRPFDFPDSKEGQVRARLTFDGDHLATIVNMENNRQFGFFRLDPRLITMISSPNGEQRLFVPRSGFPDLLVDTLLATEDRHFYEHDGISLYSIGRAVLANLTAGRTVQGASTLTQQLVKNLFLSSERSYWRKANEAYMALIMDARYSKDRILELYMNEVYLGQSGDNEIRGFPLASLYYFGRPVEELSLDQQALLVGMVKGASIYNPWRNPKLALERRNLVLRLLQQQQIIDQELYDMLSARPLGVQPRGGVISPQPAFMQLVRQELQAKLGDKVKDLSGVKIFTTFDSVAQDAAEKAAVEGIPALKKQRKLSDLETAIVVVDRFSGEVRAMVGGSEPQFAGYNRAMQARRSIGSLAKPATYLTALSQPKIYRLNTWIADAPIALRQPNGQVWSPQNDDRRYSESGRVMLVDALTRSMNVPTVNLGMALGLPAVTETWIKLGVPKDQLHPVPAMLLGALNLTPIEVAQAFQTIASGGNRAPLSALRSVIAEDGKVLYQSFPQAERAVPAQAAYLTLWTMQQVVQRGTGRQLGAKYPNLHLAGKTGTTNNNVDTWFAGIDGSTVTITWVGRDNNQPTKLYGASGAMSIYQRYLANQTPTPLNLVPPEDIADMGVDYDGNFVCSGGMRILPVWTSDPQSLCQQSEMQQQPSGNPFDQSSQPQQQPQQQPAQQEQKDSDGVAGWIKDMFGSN
ST14: Suppressor of tumorigenicity 14 protein (ST14, Homo sapiens, UniProt Q9Y5Y6)
UniProt Q9Y5Y6, sequence (whole entry, looked up): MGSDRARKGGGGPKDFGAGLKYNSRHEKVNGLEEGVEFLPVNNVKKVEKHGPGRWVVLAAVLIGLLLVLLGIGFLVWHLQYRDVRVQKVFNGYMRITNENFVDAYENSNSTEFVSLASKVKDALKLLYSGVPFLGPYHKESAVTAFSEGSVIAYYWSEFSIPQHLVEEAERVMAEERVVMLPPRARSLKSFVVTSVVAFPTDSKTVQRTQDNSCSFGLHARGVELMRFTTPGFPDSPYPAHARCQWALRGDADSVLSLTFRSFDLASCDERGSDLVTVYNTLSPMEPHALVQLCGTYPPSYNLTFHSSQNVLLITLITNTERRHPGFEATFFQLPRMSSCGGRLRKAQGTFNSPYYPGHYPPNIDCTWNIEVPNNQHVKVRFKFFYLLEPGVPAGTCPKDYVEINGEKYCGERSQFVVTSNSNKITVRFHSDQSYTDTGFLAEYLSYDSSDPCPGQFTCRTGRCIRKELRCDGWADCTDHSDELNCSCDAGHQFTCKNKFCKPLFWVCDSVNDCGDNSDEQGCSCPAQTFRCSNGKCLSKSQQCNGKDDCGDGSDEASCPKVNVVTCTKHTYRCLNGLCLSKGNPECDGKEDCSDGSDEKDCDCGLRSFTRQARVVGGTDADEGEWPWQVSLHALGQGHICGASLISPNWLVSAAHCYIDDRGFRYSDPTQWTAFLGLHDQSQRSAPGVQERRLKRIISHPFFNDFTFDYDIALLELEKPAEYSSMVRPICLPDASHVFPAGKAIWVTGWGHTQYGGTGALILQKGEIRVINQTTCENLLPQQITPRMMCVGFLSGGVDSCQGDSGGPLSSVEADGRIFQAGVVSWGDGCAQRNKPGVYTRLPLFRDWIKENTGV
UniProt Q00535, sequence (whole entry, looked up): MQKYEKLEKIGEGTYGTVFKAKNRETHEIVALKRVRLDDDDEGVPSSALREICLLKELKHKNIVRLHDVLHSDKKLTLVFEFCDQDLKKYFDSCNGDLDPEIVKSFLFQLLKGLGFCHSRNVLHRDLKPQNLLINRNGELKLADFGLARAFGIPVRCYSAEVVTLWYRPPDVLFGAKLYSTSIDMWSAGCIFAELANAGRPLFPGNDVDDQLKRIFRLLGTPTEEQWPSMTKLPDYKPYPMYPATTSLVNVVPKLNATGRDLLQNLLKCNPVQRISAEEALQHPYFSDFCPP
UniProt Q9NR56, sequence (whole entry, looked up): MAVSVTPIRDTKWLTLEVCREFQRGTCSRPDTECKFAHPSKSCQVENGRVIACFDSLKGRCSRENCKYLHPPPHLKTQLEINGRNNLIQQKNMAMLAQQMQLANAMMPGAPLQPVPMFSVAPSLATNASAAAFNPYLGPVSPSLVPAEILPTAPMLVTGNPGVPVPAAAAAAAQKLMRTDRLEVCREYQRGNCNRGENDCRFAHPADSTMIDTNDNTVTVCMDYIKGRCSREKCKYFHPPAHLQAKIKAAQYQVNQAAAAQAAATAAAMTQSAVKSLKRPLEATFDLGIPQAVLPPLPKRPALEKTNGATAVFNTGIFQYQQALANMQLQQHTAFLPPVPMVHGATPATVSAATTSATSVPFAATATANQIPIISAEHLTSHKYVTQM
UniProt Q9NYY3, sequence (whole entry, looked up): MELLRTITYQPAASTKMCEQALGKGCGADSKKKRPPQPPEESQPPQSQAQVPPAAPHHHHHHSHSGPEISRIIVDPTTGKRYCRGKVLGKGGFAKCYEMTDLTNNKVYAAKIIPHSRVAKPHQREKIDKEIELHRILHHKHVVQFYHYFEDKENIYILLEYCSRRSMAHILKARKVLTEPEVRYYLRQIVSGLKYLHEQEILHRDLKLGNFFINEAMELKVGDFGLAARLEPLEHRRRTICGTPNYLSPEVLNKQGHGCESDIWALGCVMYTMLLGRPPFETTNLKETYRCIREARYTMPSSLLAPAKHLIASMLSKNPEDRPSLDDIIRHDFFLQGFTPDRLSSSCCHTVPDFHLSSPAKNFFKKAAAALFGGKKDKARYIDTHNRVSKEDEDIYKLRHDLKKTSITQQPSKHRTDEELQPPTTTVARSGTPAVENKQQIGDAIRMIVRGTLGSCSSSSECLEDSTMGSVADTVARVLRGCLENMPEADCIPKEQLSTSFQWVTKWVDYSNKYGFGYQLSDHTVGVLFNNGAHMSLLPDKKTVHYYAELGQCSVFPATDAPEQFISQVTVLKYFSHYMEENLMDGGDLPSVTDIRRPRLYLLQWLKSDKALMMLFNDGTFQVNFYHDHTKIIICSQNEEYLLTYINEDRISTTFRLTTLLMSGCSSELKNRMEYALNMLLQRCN
UniProt P06493, sequence (whole entry, looked up): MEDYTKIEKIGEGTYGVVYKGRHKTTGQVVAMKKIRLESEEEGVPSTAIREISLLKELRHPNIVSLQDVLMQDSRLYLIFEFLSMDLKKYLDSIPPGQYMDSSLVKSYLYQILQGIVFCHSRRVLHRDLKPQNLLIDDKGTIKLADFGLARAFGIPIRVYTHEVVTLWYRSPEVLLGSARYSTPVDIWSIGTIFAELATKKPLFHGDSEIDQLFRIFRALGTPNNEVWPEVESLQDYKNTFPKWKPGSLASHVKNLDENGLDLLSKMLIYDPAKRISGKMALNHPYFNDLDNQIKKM

O=[N+]([O-])c1ccc(O[C@@H]2O[C@H](CO)[C@H](O)[C@H](O)[C@H]2O)cc1 — inhibition (Adhesin FmlH lectin domain; binding to desialylated mucin, ELISA competition; UPEC UTI89; 100 µM): 78%
CC(=O)c1cnc(N)nc1N1CC[C@H]1c1nn2ccc(Cl)c2c(=O)n1-c1ccccc1 — inhibition (Kir3.1/Kir3.4 (Homo sapiens, UniProt P48544+P48549); ion current, inhibitor; 3 µM): < 10%
C=CC(C)(C)c1[nH]c2ccccc2c1C1=C(O)C(=O)C(c2c[nH]c3c(CC=C(C)C)cccc23)=C(O)C1=O — inhibition (Trypanothione synthetase (Trypanosoma brucei brucei, UniProt Q586P2); trypanothione synthetase activity; 25 µM): 31 ± 7%
CC(C)C[C@H](NC(=O)[C@@H]1CCCN1C(=O)[C@@H]1CCCN1C(=O)[C@H](CC(N)=O)NC(=O)[C@@H](N)Cc1ccc(Cl)c(Cl)c1)C(=O)N[C@@H](Cc1c[nH]cn1)C(=O)N[C@@H](CO)C(=O)N[C@H](C(=O)N[C@@H](C)C(=O)O)[C@@H](C)OP(=O)(O)O — inhibition (PLK2 (Homo sapiens, UniProt Q9NYY3); enzyme activity, inhibitor; 10 µM): 8.21%
COc1ccccc1O[C@@H]1O[C@H](CO)[C@H](O)[C@H](O)[C@H]1O — inhibition (Adhesin FmlH lectin domain; binding to desialylated mucin, ELISA competition; UPEC UTI89; 100 µM): 97%
CC1(C)SC(C(CCc2ccccc2)B(O)O)N[C@H]1C(=O)O (stereo partly drawn) — inhibition (D-alanyl-D-alanine carboxypeptidase DacC (dacC, Bacillus subtilis, UniProt P39844); enzyme activity, inhibitor; concentration not given): no inhibition
C#CCSc1nc(Sc2nnnn2-c2ccccc2)c2nnn(Cc3ccccc3Cl)c2n1 — inhibition (Cyclin-dependent kinase 1, with cyclin B (CDK1, Homo sapiens, UniProt P06493); enzyme activity, inhibitor; 10 µM): < 15%
CSCC[C@H](N)C(=O)N[C@@H](CC(C)C)C(=O)N[C@@H](Cc1ccccc1)C(=O)N[C@@H](CO)C(=O)NCC(=O)O — inhibition (ACE; enzyme activity, inhibitor, HPLC; 530 µg/mL): 80.4%
Nc1ccccc1NC(=O)c1ccc(Nc2nccc(-c3cn(C4CCCCC4)nn3)n2)cc1 — inhibition (CDK6 with cyclin D3; enzyme activity, inhibitor, TR-FRET; 50 nM): 0.75%
N[C@H]1CCCc2c1[nH]c1ccc(Cl)cc21 — inhibition (L-type calcium channel dihydropyridine site; radioligand binding; 10 µM): 48.9 ± 7.3%
N#Cc1ccc(O[C@@H]2O[C@H](CO)[C@H](O)[C@H](O)[C@H]2O)cc1 — inhibition (Adhesin FmlH lectin domain; binding to desialylated mucin, ELISA competition; UPEC UTI89; 100 µM): 86%
COc1ccc2nc3cc(Cl)ccc3c(NCCCCNc3nc(N)nc(N)n3)c2c1 — inhibition (Muscleblind-like protein 1, with (CCUG)6 RNA (Homo sapiens, UniProt Q9NR56); MBNL1-RNA binding, gel mobility shift; up to 250 µM, together with: (CCUG)6 RNA): no inhibition
CCCCc1ccc(N2C(=O)/C(=N\NC(=N)N)c3cc([N+](=O)[O-])ccc32)cc1 — inhibition (mrcB; enzyme activity, inhibitor, HPLC; 50 µM): 0%
CC(C)C(O)C(NC(=O)[C@H](Cc1ccc(O)cc1)NC(=O)C(Cc1ccc(O)cc1)[N+](C)(C)C)C(=O)N[C@@H](C)C(=O)O (stereo partly drawn) — inhibition (ACE; enzyme activity; concentration not given): inactive
OC[C@H]1O[C@@H](Oc2ccccc2-c2ccccc2)[C@H](O)[C@@H](O)[C@H]1O — inhibition (Adhesin FmlH lectin domain; binding to desialylated mucin, ELISA competition; UPEC UTI89; 100 µM): 91%
COc1cc(C(=O)NC2CCC(N3CCN(CC4CCC5(CCCC5)C4)CC3)CC2)c(F)cc1Nc1ncc2c(n1)N(C1CCCC1(F)F)CC(F)(F)C(=O)N2C (stereo not drawn) — inhibition (FGFR3 (Homo sapiens, UniProt P22607); cell-free assay, TR-FRET; 10 µM): 5.51%
CC(C)=CCC/C(C)=C/CC/C(C)=C/CC/C(C)=C\CC1=C(C)C(=O)c2ccccc2C1=O — inhibition (IRAK4 (human); kinase activity, inhibitor, Z'-LYTE FRET; 10 µM, together with: ATP 10 µM): 4%
COc1cc(OC)cc(O[C@@H]2O[C@H](CO)[C@H](O)[C@H](O)[C@H]2O)c1 — inhibition (Adhesin FmlH lectin domain; binding to desialylated mucin, ELISA competition; UPEC UTI89; 100 µM): 76%
Cc1ccc(O)c(C(=O)Nc2ccc(CN)cc2)c1 — inhibition (ST14; enzyme activity, inhibitor; 10 µM): 0%
CC(C)(C)OC(=O)NCCCNC(=O)c1cc2c(=O)[nH]c3ccccc3c2s1 — inhibition (Cyclin-dependent kinase 5, with p25 (CDK5, Homo sapiens, UniProt Q00535); 50 µM, together with: ATP 30 µM): 13.1%
C[C@@H](N)C1CCN(S(=O)(=O)c2cccc3c(=O)[nH]ccc23)CC1 — inhibition (PRKCE (Homo sapiens, UniProt Q02156); cell-free assay, competition with immobilised ligand; 10 µM): > 95%
CC(C)Cn1cc(-c2ccnc(Nc3ccc(OCCCCCCC(=O)NO)cc3)n2)nn1 — inhibition (CDK6 with cyclin D3; enzyme activity, inhibitor, TR-FRET; 5 µM): 9.78%
Cc1ccc(C(=O)Nc2ccc(CN)cc2)c(O)c1 — inhibition (ST14; enzyme activity, inhibitor; 10 µM): < 20%
CCCCCCCCCCN1C(=O)/C(=N\NC(=N)N)c2cc(C)ccc21 — inhibition (mrcB; enzyme activity, inhibitor, HPLC; 50 µM): 100%
CN(C)C/C=C/C(=O)Nc1ccc(C(=O)N[C@H]2CCC[C@@H](Nc3ncc(Cl)c(-c4c[nH]c5ccccc45)n3)C2)nc1 — inhibition (CDK13 (Homo sapiens, UniProt Q14004); KiNativ profiling; A549 cell lysate; 1 µM): > 50%
CCCCCCCCCCCN1C(=O)/C(=N\NC(=N)N)c2cc(C)ccc21 — inhibition (mrcB; enzyme activity, inhibitor, HPLC; 50 µM): 100%
CCOCn1cc(F)c(=O)n(C(=O)c2cccc(C(=O)Oc3cc(OC(=O)c4cc(OC(=O)CC)nc(OC(=O)CC)c4)c(Cl)cn3)c2)c1=O — inhibition (Uridine 5'-monophosphate synthase, OPRT domain (UMPS, Homo sapiens, UniProt P11172); 5-FU phosphorylation, inhibitor; heat-denatured SC-2 xenograft extract; concentration not given): no inhibition
O=C(Nc1cccc(C(=O)Nc2ccc(S(=O)(=O)O)c3cc(S(=O)(=O)O)cc(S(=O)(=O)O)c23)c1)Nc1cccc(C(=O)Nc2ccc(S(=O)(=O)O)c3cc(S(=O)(=O)O)cc(S(=O)(=O)O)c23)c1 — inhibition (Genome polyprotein, NS3 helicase domain (Hepatitis C virus genotype 1b, UniProt Q9WMX2); DNA binding, fluorescence polarization; 100 µM, together with: Cy5-dT15 DNA): > 60%
CC(C)Cn1cc(-c2ccnc(Nc3ccc(C(=O)Nc4ccccc4N)cc3)n2)nn1 — inhibition (CDK6 with cyclin D3; enzyme activity, inhibitor, TR-FRET; 5 µM): 3.55%
O=[N+]([O-])c1ccc(Cn2cc(Cn3cc(CO)nn3)nn2)cc1 — inhibition (Pleckstrin homology domain-containing family A member 1, PH domain (Homo sapiens, UniProt Q9HB21); PI(3,4)P2 binding, competitive SPR; 5 µM, PH domain 500 nM): 21 ± 2%
CC(C)Cn1cc(-c2ccnc(Nc3ccc(N4CCN(CCCCCCC(=O)NO)CC4)cc3)n2)nn1 — inhibition (CDK6 with cyclin D3; enzyme activity, inhibitor, TR-FRET; 5 µM): 63.4%
Cc1cc(=O)oc2cc(O[C@@H]3O[C@H](CO)[C@H](O)[C@H](O)[C@H]3O)ccc12 — inhibition (Adhesin FmlH lectin domain; binding to desialylated mucin, ELISA competition; UPEC UTI89; 100 µM): 85%
CC(C)Cn1cc(-c2nc(Nc3ccc(OCCCCCCC(=O)NO)cc3)ncc2F)nn1 — inhibition (CDK6 with cyclin D3; enzyme activity, inhibitor, TR-FRET; 5 µM): 16.2%
CCCCCCN1C(=O)/C(=N\NC(=N)N)c2cc(C)ccc21 — inhibition (mrcB; enzyme activity, inhibitor, HPLC; 50 µM): 0%
Nc1ccccc1NC(=O)c1ccc(Nc2nccc(-c3cn(C4CCCC4)nn3)n2)cc1 — inhibition (CDK6 with cyclin D3; enzyme activity, inhibitor, TR-FRET; 5 µM): 3.2%
CC[C@H](C)[C@H](NC(=O)[C@@H](N)C(C)C)C(=O)N[C@@H](Cc1ccc(O)cc1)C(=O)NCC(=O)N1CCC[C@H]1C(=O)N[C@@H](CO)C(=O)N[C@H](C(=O)N[C@@H](Cc1ccccc1)C(=O)O)C(C)C — inhibition (ACE; enzyme activity, inhibitor, HPLC; 270 µg/mL): 69.5%
